# Experimental data gathered from unrelated publications.
# Target: Tyrosine-protein kinase receptor Tie-1 (TIE1, Homo sapiens, UniProt P35590)
SMILES,assay,setting,scale,remaining binding
CC(C)=CC1OC(C)(C)C2C=C3C(=O)C(Cl)=CC(O)C3C3C(O)C4OC4C(=O)C132 (centres unmarked),"cell-free assay, competition with immobilised ligand",10 µM,,93%
CCN1CCN(Cc2ccc(C(=O)Nc3ccc(C)c(NCc4cnc5[nH]ccc5c4OC)c3)cc2C(F)(F)F)CC1,"binding, competition with immobilised ligand",1 µM,,3.6%
C=CC(=O)N1CCc2ccc(-n3c(=O)ccc4cnc5ccc(-c6cnn(C)c6)cc5c43)cc21,KINOMEscan,1 µM,relative to: DMSO control,100%
COc1cc(Nc2nc(C)cc(-c3cnn4nc(OC)ccc34)n2)cc(C(F)(F)F)c1,"binding, competition with immobilised ligand",1 µM,,84%
CNC(=O)C1CCN(c2cc(C)c(F)cc2NC(=O)c2ccc(-c3cc(O)ccc3C)c(C)c2)CC1,"binding, competition with immobilised ligand",1 µM,,80%
COc1cc(Nc2nccc(-c3cnn4nc(OC)ccc34)n2)cc(C(F)(F)F)c1,"binding, competition with immobilised ligand",1 µM,,87%
C=CC(=O)N1CCCC(n2c(=O)c3ncccc3n(Cc3ccc(Oc4ccccc4)cc3)c2=O)C1 (centres unmarked),"cell-free assay, competition with immobilised ligand",1 µM,,95%
CCN1CCN(Cc2ccc(NC(=O)c3ccc(C)c(NC(=O)c4cncc(-c5cnn(C)c5)c4)c3)cc2C(F)(F)F)CC1,"binding, competition with immobilised ligand",1 µM,,8.4%
Nc1ncc2c(n1)-c1c([nH]c3ccc(C4=CCOCC4)cc13)CCC2,"binding, competition with immobilised ligand",1 µM,,100%
COc1c(Cl)cccc1Nc1c(-c2ccncc2C#C[C@@]2(C)CCCN2C(=O)/C=C/CN(C)C)[nH]c2c1C(=O)NCC2,"cell-free assay, competition with immobilised ligand",3 µM,,100%
CNC1C[S+]2CC[S+]3CC[S+](C1)[Ru-4]321([N]=C=S)[n]2c3ccc(OC)cc3c3c4c(c5cc(F)c[n+]1c5c32)C(=O)NC4=O (centres unmarked),KinomeScan,0.1 µM,relative to: untreated,100%
Cc1cnc2nc1Nc1cccc(c1)COC/C=C/COCc1cc(ccc1OCCN1CCOCC1)N2,"binding, competition with immobilised ligand",0.1 µM,,83%
CCN1CCN(Cc2ccc(NC(=O)c3ccc(C)c(NC(=O)c4cncc(-c5cccs5)c4)c3)cc2C(F)(F)F)CC1,"binding, competition with immobilised ligand",1 µM,,6.3%
Cc1ccc(-c2c(/C=C(\C#N)C(=O)NC(C)C)n(CCCO)c3ncnc(N)c23)cc1,"cell-free assay, competition with immobilised ligand",1 µM,,100%

# For quick reference, copied from above:
SMILES,assay,setting,scale,remaining binding
CCN1CCN(Cc2ccc(NC(=O)c3ccc(C)c(NC(=O)c4cncc(-c5cccs5)c4)c3)cc2C(F)(F)F)CC1,"binding, competition with immobilised ligand",1 µM,,6.3%
